Measured values gathered from unrelated publications.
Compare with care: the assays were run in different laboratories. Numbers after ± are the reported error. In brackets after ≈: the same amount, converted by molar mass.

With CCC1(CC)CC(=O)N(C2c3cc(C(=O)NC4c5ccccc5CC4O)ccc3OC2(C)COC)C(=N)N1 (centres unmarked) the lag phase was 24 h (Plasmodium falciparum; 3D7; 10 × EC50, 120 h).
For Cc1ccc(N(C)C(=O)[C@H](Cc2ccccc2)NC(=O)Cc2c[nH]c3ccc(O)cc23)cc1, the EC50 was 380 ± 90 nM (HIV-1; infectivity of progeny virus; HEK293FT, NL4-3).
CC1=C(Cn2cc(CN3CCC(F)(F)CC3)nn2)C(=O)c2ccccc2C1=O has an IC50 of 1480 nM (Schistosoma mansoni; parasite growth; 72 h, larva).
CC(C)(C)NCC(SS(=O)(=O)O)c1ccccc1 (centres unmarked) — result for “mean female worms recovered”: 9.2 worms per mouse (Schistosoma mansoni; infected mice; 600 mg/kg single, dosed day 7, perfusion day 44).
CC1(C)NC(=O)N(c2ccc(F)c(C(C)(F)F)c2)C1=O gave an ED50 of 18 mg/kg (Schistosoma mansoni; adult, infected mice; oral, single dose).
CC1=C(Cn2cc(CN3CCC(=O)CC3)nn2)C(=O)c2ccccc2C1=O has a killing of 50% (Schistosoma mansoni; adult worms; 25 µM, 72 h).
With CC(=O)OC[C@H]1O[C@@H](Sc2sc(C(=O)c3ccc(Br)cc3)c(N)c2-c2nc3ccccc3s2)[C@H](OC(C)=O)[C@@H](OC(C)=O)[C@@H]1OC(C)=O the viral reduction was 40% (hepatitis A virus; plaque reduction; HM 175; non-toxic dose NG, mean over three titres).
The MIC of Cc1c(CN(C)C(=O)/C=C/c2cnc3c(c2)CC(N)C(=O)N3)oc2ccccc12 (centres unmarked) is reported as 8 µg/mL (≈ 20.5 µM) (Escherichia coli; broth microdilution; AR-0543).
For CC(=O)O[C@@H]1[C@@H](OC(C)=O)[C@H](Sc2sc(C(=O)c3ccc(C)cc3)c(N)c2-c2nc3ccccc3s2)OC[C@H]1OC(C)=O, “viral titre reduction” read 20% (hepatitis A virus; plaque reduction; HM 175; non-toxic concentration).
With CCn1c(C)c(CC(=O)N[C@@H](Cc2ccccc2)C(=O)N(C)c2ccccc2)c2ccccc21 the EC50 was 450 ± 60 nM (HIV-1; infectivity of progeny virus; HEK293FT, NL4-3).
With C=C(NC(=O)c1csc(-c2nc3c(cc2O)-c2nc(cs2)C(=O)NC(C(C)O)C(=O)NC(=C(C)OC)c2nc(cs2)C(=O)NC2c4nc(cs4)C(=O)NC(COC(=O)c4c5c6c(cccc6n4O)COC(=O)C(OC4CC(C)(O)C(N(C)C)C(C)O4)C2OC5)c2nc-3cs2)n1)C(N)=O (centres unmarked) the MIC90 was 0.0156 µg/mL (≈ 0.0109 µM) (Streptococcus pyogenes; microbial growth; clinical isolate).
Cc1cc(C(=O)Nc2nc3cccc(C)c3n2[C@H]2CCCCN(C(=O)/C=C/CN(C)C)C2)ccn1 has a proliferation of 100% (Trypanosoma brucei brucei; Lister 427; 1.85 µM, 0 h, kill kinetics).
With CO[C@H]1O[C@H](COC(c2ccccc2)(c2ccccc2)c2ccccc2)[C@@H](OS(=O)(=O)c2ccccc2)[C@H](OS(=O)(=O)c2ccccc2)[C@H]1OS(=O)(=O)c1ccccc1 the MBC was 16 µg/mL (≈ 18.7 µM) (Bacillus subtilis; microbial killing, broth dilution).
For CC[C@H](C)[C@H](NC(=O)[C@@H]1CCCN1C(=O)[C@H](CCSC)NC(=O)[C@H](CC(C)C)NC(=O)[C@H](Cc1ccccc1)NC(=O)[C@H](Cc1ccc(O)cc1)NC(=O)[C@@H]1CCC(=O)NCC(=O)NCC(=O)NCC(=O)NCC(=O)N2CCC[C@H]2C(=O)N[C@@H]([C@@H](C)O)C(=O)N2CCC[C@H]2C(=O)N1)C(=O)N[C@@H](CC(=O)O)C(=O)N1CCC[C@H]1C(=O)N[C@@H](C)C(=O)N[C@@H](Cc1c[nH]c2ccccc12)C(=O)N[C@@H](CC(C)C)C(=O)N[C@@H](CCC(N)=O)C(=O)N[C@@H](C)C(=O)N[C@@H](CC(N)=O)C(=O)N[C@@H](CC(C)C)C(=O)N1CCC[C@H]1C(=O)N[C@@H](CC(N)=O)C(=O)N[C@H](C(=O)NCC(=O)N[C@@H](CCCCN)C(=O)N[C@@H](Cc1ccc(O)cc1)C(=O)N[C@@H](CC(N)=O)C(=O)O)[C@@H](C)O, antimicrobial activity read “inactive” (Bacillus subtilis; spot-on-lawn; 168; concentration not given, 30 °C).
C[C@@H]1C(=O)O[C@@H](C)/C=C/C=C\[C@@H](C)[C@@H]2C=C[C@@H]3C[C@@]4(C)O[C@H]4[C@@H](C)[C@H]3[C@@H]2C(=O)C(Cl)(Cl)C1=O has an MIC of 0.025 µg/mL (≈ 0.0505 µM) (Staphylococcus aureus; MSSA clinical isolate; resistant: PEN,CHL,ERY,SXT,TET).
CC(=O)OC[C@H]1O[C@@H](Sc2sc(C(=O)c3ccc(Cl)cc3)c(N)c2-c2nc3ccccc3s2)[C@H](OC(C)=O)[C@@H](OC(C)=O)[C@@H]1OC(C)=O — result for “viral titre reduction”: 10% (hepatitis A virus; plaque reduction; HM 175; non-toxic concentration).
For OC(Cn1cncn1)(Cn1cc(-[c-]2cccc2)nn1)c1ccc(F)cc1F.[Cl-].[Co+3].c1cc[cH-]c1 (racemic), the inhibition was 19% (Brugia pahangi; motility, Worminator; adult female; 50 µM, 6 d).

Some of these lines once more:
CC1=C(Cn2cc(CN3CCC(=O)CC3)nn2)C(=O)c2ccccc2C1=O has a killing of 50% (Schistosoma mansoni; adult worms; 25 µM, 72 h).
With CC(=O)OC[C@H]1O[C@@H](Sc2sc(C(=O)c3ccc(Br)cc3)c(N)c2-c2nc3ccccc3s2)[C@H](OC(C)=O)[C@@H](OC(C)=O)[C@@H]1OC(C)=O the viral reduction was 40% (hepatitis A virus; plaque reduction; HM 175; non-toxic dose NG, mean over three titres).
